Published values of several laboratories.
Lines come from different studies, so protocols differ. Several values in a cell are separate wells, animals, samples, runs or records. Numbers after ± are the reported error.

`CN(C)c1ncnc2c1ncn2[C@@H]1O[C@H](CO)[C@@H](O)[C@H]1O` has an AP-TGFα release of 0.87% and 0.2% and 1.46% (mock-transfected cells; TGFα shedding, agonist; 100 nM; relative to: unstimulated vehicle control).
`Cn1cc(Nc2nccc(-c3ccc4c(c3)CN(C3COC3)CC[C@H]4NC(=O)c3cn(C(C)(C)C)nn3)n2)cn1`: “number of unchanged genes” 1350 (human B cells; 100 nM, 64 h, stimulation-downregulated genes, added: CD40L, anti-IgM, IL-21).
`NS(=O)(=O)OC[C@H]1C[C@@H](Nc2ccnc3cc(-c4cccc(SC(F)(F)F)c4)nn23)[C@H](O)[C@@H]1O` has an EC50 of 491 nM (BRD4-HiBiT cells; BRD4 degradation rescue, inhibitor; 2 h, 50% degradation rescued, added: dBET6 500 nM).
`Nc1cccc2c1C(=O)N(C1CCC(=O)NC1=O)C2=O` (centres unmarked) has a viability of 8% (bone marrow CD138+ myeloma cells; XTT; 1.8 µM, phenol red-free RPMI).
For `C[C@H]1Oc2cc(cnc2N)-c2c(nn(C)c2C#N)CN(C)C(=O)c2ccc(F)cc21`, the Emax was 99.8% (Ba/F3 EML4-ALK v1, no mutation; cell viability).
`CC/C(=N\NC(=O)NCc1cccc(O)c1)c1ccc(O)c(C)c1O`: “phosphorylated protein ratio” 0.82 ± 0.64 (SK-OV-3; Western blot, item: phospho-YAP; 1 µM, 1 h, 2D culture; relative to: total YAP).
The EC50 of `CC(C)C[C@H](NC(=O)CNC(=O)c1cc(Cl)ccc1Cl)B(O)O` is reported as 38.5 nM (BRD4-HiBiT cells; BRD4 degradation rescue, inhibitor; 24 h, added: dBET6 500 nM).
`COc1cccc2c1C(=O)c1c(O)c3c(c(O)c1C2=O)C[C@@](O)(C(=O)CO)C[C@@H]3O[C@H]1C[C@H](N)[C@H](O)[C@H](C)O1` gave an Emax of 96.1% (A2780 cisplatin-resistant; cytotoxicity, WST-1; 72 h, highest tested concentration).
`O=P(O)(O)C(O)(Cn1ccnc1)P(=O)(O)O` has a viability of 100 ± 1% (hFOB 1.19; AlamarBlue; 7.5 µM, 48 h; relative to: control).
`COc1ccc(C2CC3=C(C(=O)O2)C(c2ccccc2Cl)C(C(=O)OCc2ccccc2)=C(C)N3)cc1OC` (centres unmarked) gave an EC50 of over 20000 nM (J774.A1; cytotoxicity).
`CCn1cc(-c2cc(Cn3ccnc3)cc3c2CCN([C@H](c2cc(OC)ccn2)C2CC2)C3=O)c(C(F)(F)F)n1` has an EC50 of 4170 nM (OVK18; cell growth, inhibitor; 120 h).
For `O=C(/C=C/C=C/C=C/C1CCCCC1)NC1=C[C@@](O)(/C=C/C=C/C=C/C(=O)NC2=C(O)CCC2=O)[C@@H]2O[C@@H]2C1=O`, the GI50 was 13800 nM (MKN-7; cell growth, CellTiter-Glo; 78 h).
With `C=Cc1c2[n-]c(c1C)/C=c1\[n-]/c(c(C)c1C=C)=C\c1[n-]c(c(CCC(=O)O)c1C)/C=c1\[n-]c(c(C)c1CCC(=O)O)=C2.[Sn+4]` the fold change was 2.44 (SH-SY5Y; RNA-seq, item: SYNJ2 mRNA; 5 µM, 5 h; relative to: untreated cells).
Under “IC50 fold change”, `Nc1ccn([C@@H]2O[C@H](CO)[C@@H](O)[C@@H]2O)c(=O)n1` is recorded as 93 fold (THP-1 SAMHD1 knockout; cell viability, MTS; 3 days; relative to: THP-1 shScr over SAMHD1 knockout).
For `COc1cnc2cccc(N3CCc4c(cc(Cn5ccnc5C)cc4-c4cn(C)nc4C(F)(F)F)C3=O)c2c1`, the EC50 was 1330 nM (NCI-H1650; cell growth, inhibitor; 120 h).
`N#C/C(=C\c1c[nH]nc1-c1ccc(Cl)c(Cl)c1)C(=O)O`: mRNA level “decreased” (LX-2; qPCR, item: PAI1; 10 µM, hepatic stellate cell activation, added: TGFβ; relative to: untreated).
With `CCn1cc(-c2cc(Cn3ccoc3=N)cc3c2CCN([C@@H](C)c2cc(OC)ccn2)C3=O)c(C(F)(F)F)n1` the EC50 was 12800 nM (HCC1833; cell growth; 120 h).
The IC50 of `CC#CC(=O)N1CCC[C@H]1c1nc(-c2ccc(C(=O)Nc3ccccn3)cc2)c2c(N)nccn12` is reported as 11.7 nM (TMD8; calcium flux, FLIPR; 2 h preincubation, added: anti-IgM).
For `Cn1cc(-c2ccc(-c3cncc(Cl)c3N3CCC4(CCNC4=O)CC3)cc2)cn1`, “fold change in expression” read -1.16 (COLO 205; microarray, item: NRF2; concentration not given, 4 h; relative to: untreated cells).
`Cc1cnc(NC2CCOCC2)nc1-n1cnc(C(=O)NC(CN)c2cc(F)cc(Cl)c2)c1` (centres unmarked) — result for “S phase cells”: 6.3% (MINO; flow cytometry; 1 µM, 72 h).

Repeated from above:
The IC50 of `CC#CC(=O)N1CCC[C@H]1c1nc(-c2ccc(C(=O)Nc3ccccn3)cc2)c2c(N)nccn12` is reported as 11.7 nM (TMD8; calcium flux, FLIPR; 2 h preincubation, added: anti-IgM).
For `Cn1cc(-c2ccc(-c3cncc(Cl)c3N3CCC4(CCNC4=O)CC3)cc2)cn1`, “fold change in expression” read -1.16 (COLO 205; microarray, item: NRF2; concentration not given, 4 h; relative to: untreated cells).
`Cc1cnc(NC2CCOCC2)nc1-n1cnc(C(=O)NC(CN)c2cc(F)cc(Cl)c2)c1` (centres unmarked) — result for “S phase cells”: 6.3% (MINO; flow cytometry; 1 µM, 72 h).
